Measured values gathered from unrelated publications.
± marks the error that the study gave.
Sequence of UniProt Q8NB78 (whole entry, looked up): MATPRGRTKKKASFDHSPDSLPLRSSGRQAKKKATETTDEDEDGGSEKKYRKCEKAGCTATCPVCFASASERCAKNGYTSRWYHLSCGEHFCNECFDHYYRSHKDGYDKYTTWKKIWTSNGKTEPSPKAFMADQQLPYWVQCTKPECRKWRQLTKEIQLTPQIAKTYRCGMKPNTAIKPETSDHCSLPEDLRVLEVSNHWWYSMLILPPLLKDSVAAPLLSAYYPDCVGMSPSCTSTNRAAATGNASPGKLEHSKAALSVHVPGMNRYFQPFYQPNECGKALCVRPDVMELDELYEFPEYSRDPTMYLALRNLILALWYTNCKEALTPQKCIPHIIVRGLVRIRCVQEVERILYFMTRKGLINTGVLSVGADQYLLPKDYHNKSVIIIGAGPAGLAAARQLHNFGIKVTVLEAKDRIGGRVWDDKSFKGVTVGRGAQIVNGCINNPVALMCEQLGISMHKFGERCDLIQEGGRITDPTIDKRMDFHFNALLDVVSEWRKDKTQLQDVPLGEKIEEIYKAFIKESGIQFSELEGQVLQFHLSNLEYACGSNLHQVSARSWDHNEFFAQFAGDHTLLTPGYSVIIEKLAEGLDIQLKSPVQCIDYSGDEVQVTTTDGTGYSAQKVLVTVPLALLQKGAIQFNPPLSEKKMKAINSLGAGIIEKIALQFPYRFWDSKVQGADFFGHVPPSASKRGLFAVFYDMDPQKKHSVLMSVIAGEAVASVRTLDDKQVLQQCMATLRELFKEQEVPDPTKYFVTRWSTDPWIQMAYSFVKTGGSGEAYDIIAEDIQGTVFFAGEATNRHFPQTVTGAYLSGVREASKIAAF
Sequence of UniProt P42575 (whole entry, unmodified, looked up): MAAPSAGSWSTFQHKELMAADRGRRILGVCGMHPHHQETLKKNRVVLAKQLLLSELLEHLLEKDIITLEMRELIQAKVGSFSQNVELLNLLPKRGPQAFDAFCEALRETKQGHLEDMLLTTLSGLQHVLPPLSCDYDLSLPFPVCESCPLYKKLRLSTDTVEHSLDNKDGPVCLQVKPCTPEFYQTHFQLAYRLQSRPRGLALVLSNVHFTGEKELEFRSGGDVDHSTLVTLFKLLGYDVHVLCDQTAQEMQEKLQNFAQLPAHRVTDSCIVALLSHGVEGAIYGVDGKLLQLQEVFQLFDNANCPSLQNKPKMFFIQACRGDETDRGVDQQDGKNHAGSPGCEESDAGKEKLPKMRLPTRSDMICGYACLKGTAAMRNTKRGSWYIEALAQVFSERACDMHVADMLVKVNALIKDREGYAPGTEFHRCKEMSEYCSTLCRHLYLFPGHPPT

SMILES	tested on	assay	test system	setting	scale	measurement	result
COc1cc(CNC(=O)C[C@H](C)CCC=C(C)C)ccc1O	RXF 393	SRB	–	10 µM, 48 h	–	growth percent	104%
CCOC(=O)C1=C(C)NC2=C(C(=O)CC(C)(C)C2)C1c1ccc(OCC(=O)NN=Cc2cccc([N+](=O)[O-])c2)cc1OCC(=O)NN=Cc1cccc([N+](=O)[O-])c1 (stereo not shown)	Priestia megaterium	–	DSM 32	concentration not given, 24 h, 37 °C	–	inhibition zone diameter	9.2 ± 0.2 mm
CC[C@H]1[C@@H](O)[C@@H]2[C@H](CC[C@]3(C)[C@@H]([C@H](C)CCOS(=O)(=O)[O-])CC[C@@H]23)[C@@]2(C)CC[C@@H](O)C[C@@H]12.[Na+]	–	histology	ob/ob NASH mouse model, liver	oral, 10 mg/kg once daily, before treatment, baseline of 8 week study, scale 0 to 3	direction not given	steatosis score	2.9 ± 0.1
O=C1/C(=C/c2ccc(O)cc2)Oc2c1c(O)cc(O)c2-c1ccc(O)c(O)c1	–	DPPH scavenging, absorbance	–	–	–	EC50	80 µM
CN[C@H](CC(C)C)C(=O)N[C@H]1C(=O)N[C@@H](CC(N)=O)C(=O)N[C@H]2C(=O)N[C@H]3C(=O)N[C@H](C(=O)N[C@H](C(=O)O)c4cc(O)cc(O)c4-c4cc3ccc4O)[C@H](O)c3ccc(c(Cl)c3)Oc3cc2cc(c3O[C@@H]2O[C@H](CO)[C@@H](O)[C@H](O)[C@H]2O[C@H]2C[C@](C)(NCc3ccc(C(=O)OCCCCCCN(Cc4ccccn4)Cc4ccccn4)cc3)[C@H](O)[C@H](C)O2)Oc2ccc(cc2Cl)[C@H]1O	Bacillus subtilis	protein synthesis, refers to: RpsC	168	concentration not given, 10 min, at peak effective concentration	baseline: untreated	regulation factor	11.4 ± 12.7
COc1cc(CNC(=O)C[C@H](C)CCC=C(C)C)ccc1OCc1cn(-c2ccc([N+](=O)[O-])cc2)nn1	RXF 393	SRB	–	10 µM, 48 h	–	growth percent	90.6%
COc1cc2c(OC3OCC(OC)C(OC)C3OC(=O)c3ccc(Br)cc3)c3c(c(-c4ccc5c(c4)OCO5)c2cc1OC)C(=O)OC3 (stereo not shown)	FaDu spheroids	Hoechst/EthD-1 staining	–	0.1 µM, 72 h	–	live/dead cell ratio	decreased
COc1ccc(CCCN[C@@H]2CCC[C@H]2CN[C@@H]2CCC[C@H]2CNCCCCN[C@@H]2CCC[C@H]2CN)cc1	KDM1B (Homo sapiens, UniProt Q8NB78)	enzyme activity, inhibitor	–	–	–	Ki	24 µM
COc1cc(CNC(=O)C[C@H](C)CCC=C(C)C)ccc1OCc1cn(-c2ccccc2F)nn1	EKVX	SRB	–	10 µM, 48 h	–	growth percent	78.3%
CCC(=O)N(C)c1ccc(Cl)c(Cl)c1	CAR3 constitutive androstane receptor, human	reporter gene, agonist	–	100 µM	baseline: vehicle	fold activation	1 fold
[64Cu+2].c1cnc(CNCc2ccc(CN3CCCN4CCNCCCN(CC4)CC3)cc2)nc1	CXCR4 (human)	–	NOD/SCID mice, U87 xenografts, small intestine	120 min post-injection	–	tissue uptake	6.96 ± 0.79 %ID/g
CC(C)C[C@H](NC(=O)[C@H](CO)NC(=O)[C@H](CCCNC(=N)N)NC(=O)[C@H](CC(=O)O)NC(=O)[C@H](CCC(=O)O)NC(=O)[C@H](C)NC(=O)[C@@H]1CCCN1C(=O)[C@H](C)NC(=O)[C@H](CCC(=O)O)NC(=O)[C@@H]1CCCN1C(=O)[C@@H]1CCCN1)C(N)=O	dopamine system	–	rhesus monkey, contralateral putamen	intranasal, dose not given, repeated dose escalation	baseline: vehicle	HVA level reduction	25%
COc1cc(CNC(=O)C[C@H](C)CCC=C(C)C)ccc1OCc1cn(-c2cccc([N+](=O)[O-])c2)nn1	Hs-578T breast cancer cells	SRB	–	10 µM, 48 h	–	growth percent	68.2%
N=C(N)NCCC[C@@H]1NC(=O)[C@H](CCCCNC(=O)CNC(=O)CNC(=O)CNC(=O)CC[C@H](NC(=O)CNC(=O)CNC(=O)CNC(=O)CN2CCN(CC(=O)O)CCN(CC(=O)O)CCN(CC(=O)O)CC2)C(=O)NCC(=O)NCC(=O)NCC(=O)NCCCC[C@@H]2NC(=O)[C@@H](Cc3ccccc3)NC(=O)[C@H](CC(=O)O)NC(=O)CNC(=O)[C@H](CCCNC(=N)N)NC2=O)NC(=O)[C@@H](Cc2ccccc2)NC(=O)[C@H](CC(=O)O)NC(=O)CNC1=O [indium-111 labelled]	–	–	female athymic nu/nu mice, liver	intravenous, 0.5 h	–	tissue uptake	2.45 ± 0.14 %ID/g
NS(=O)(=O)Nc1ncnc(OCCOc2ncc(Br)cn2)c1-c1ccc(Br)cc1	–	M6 formation	male Beagle dog, liver microsomes	500 mg/kg daily for 4 weeks	–	Km	5.3 ± 1 µM
COc1cc(CNC(=O)C[C@H](C)CCC=C(C)C)ccc1OCc1cn(-c2ccccc2[N+](=O)[O-])nn1	Hs-578T breast cancer cells	SRB	–	10 µM, 48 h	–	growth percent	73.7%
[64Cu+2].c1ccc(CNCc2ccc(CN3CCCN4CCNCCCN(CC4)CC3)cc2)nc1	CXCR4	–	NOD/SCID mouse, U87 and U87-stb-CXCR4 xenografts, liver	iv, 90 min, no blocking dose, ex vivo	–	tissue uptake	58 ± 3.68 %ID/g
CC(=O)N[C@@H](CC(=O)O)C(=O)N[C@@H](CCCNC(=N)N)C(=O)N[C@@H](C)C(=O)N[C@H](C=O)CC(=O)O	Caspase-2, circularly permuted (Homo sapiens, UniProt P42575)	enzyme activity, inhibitor	–	pH 6.5, 37 °C, added: Z-VDVAD-AFC	–	Ki	1.02 µM
O=C1c2c(cc(O)c(-c3ccc(O)c(O)c3)c2O)OC1Cc1ccc(O)c(O)c1 (stereo not shown)	–	DPPH scavenging, absorbance	–	–	–	EC50	40 µM
CO[C@@H]1[C@H](O)[C@@H](COP(=O)(O)OP(=O)([S-])OP(=O)(S)OC[C@H]2O[C@@H](n3cnc4c(=O)[nH]c(N)nc43)[C@H](O)[C@@H]2O)O[C@H]1n1c[n+](C)c2c(O)nc(N)nc21 (mixture of isomers)	Schizosaccharomyces pombe Dcp1/Dcp2 complex	substrate	capped short RNA	15 min, 30 °C	–	decapping	32.2 ± 1.5%
N=C(N)NCCC[C@@H]1NC(=O)[C@H](CCCCNC(=O)CC[C@H](NC(=O)CC[C@H](NC(=O)CN2CCN(CC(=O)O)CCN(CC(=O)O)CCN(CC(=O)O)CC2)C(=O)N[C@@H](CCC(=O)NCCCC[C@@H]2NC(=O)[C@@H](Cc3ccccc3)NC(=O)[C@H](CC(=O)O)NC(=O)CNC(=O)[C@H](CCCNC(=N)N)NC2=O)C(=O)NCCCC[C@@H]2NC(=O)[C@@H](Cc3ccccc3)NC(=O)[C@H](CC(=O)O)NC(=O)CNC(=O)[C@H](CCCNC(=N)N)NC2=O)C(=O)NCCCC[C@@H]2NC(=O)[C@@H](Cc3ccccc3)NC(=O)[C@H](CC(=O)O)NC(=O)CNC(=O)[C@H](CCCNC(=N)N)NC2=O)NC(=O)[C@@H](Cc2ccccc2)NC(=O)[C@H](CC(=O)O)NC(=O)CNC1=O [indium-111 labelled]	–	–	female athymic nu/nu mice, heart	intravenous, 24 h	–	tissue uptake	0.54 ± 0.26 %ID/g
O=c1c(OCc2ccccc2)c(-c2cccc([N+](=O)[O-])c2)oc2ccccc12	–	–	diabetic rat	5 mg/kg, day 21, p-nitrophenyl β-glucoside induced	–	blood glucose	186 ± 4.91 mg/dL

Repeated from above:
SMILES	tested on	assay	test system	setting	scale	measurement	result
COc1cc(CNC(=O)C[C@H](C)CCC=C(C)C)ccc1O	RXF 393	SRB	–	10 µM, 48 h	–	growth percent	104%
CCOC(=O)C1=C(C)NC2=C(C(=O)CC(C)(C)C2)C1c1ccc(OCC(=O)NN=Cc2cccc([N+](=O)[O-])c2)cc1OCC(=O)NN=Cc1cccc([N+](=O)[O-])c1 (stereo not shown)	Priestia megaterium	–	DSM 32	concentration not given, 24 h, 37 °C	–	inhibition zone diameter	9.2 ± 0.2 mm
CC[C@H]1[C@@H](O)[C@@H]2[C@H](CC[C@]3(C)[C@@H]([C@H](C)CCOS(=O)(=O)[O-])CC[C@@H]23)[C@@]2(C)CC[C@@H](O)C[C@@H]12.[Na+]	–	histology	ob/ob NASH mouse model, liver	oral, 10 mg/kg once daily, before treatment, baseline of 8 week study, scale 0 to 3	direction not given	steatosis score	2.9 ± 0.1
